Measured values gathered from unrelated publications.
± marks the error that the study gave.

SMILES | cell line | test | setting | IC50 [µM]
O=C(NCc1cc(F)cc(F)c1)[C@@]1(O)CCN(c2ccc3[nH]ccc3c2)C1=O | PAXF546 | colony formation |  | 10
COC(=O)N1c2ccc3c(nc(Cc4ccccc4)n3[C@@H]3CCC[C@@H](C(=O)O)C3)c2CC[C@@H]1C | MDA-MB-436 | cell proliferation, CellTiter-Glo, geometric mean | 240 h | 2.69
C=CC(=O)N1C[C@H](C)N(c2nc(OC[C@@]34CCCN3C[C@H](F)C4)nc3c(F)c(-c4ccc(F)c5sc(N)c(C#N)c45)c(C(F)(F)F)cc23)C[C@H]1C | Ba/F3 expressing KRAS G12C/G13D | cell viability | 72 h | 0.0053
NC(=O)c1ccc(-c2ccccc2Cl)c2c3c([nH]c12)CCC(N)C3 (stereo not drawn) | NCI-H446 | cell growth or viability | 96 h | 0.0375
C[C@H](c1ccc(Br)cc1)N1C(=O)C2=Nc3ccccc3CN2C1=S | healthy human PBMCs | cell viability, resazurin |  | 3 ± 0.7
Cn1ncc(-c2ccc3c(=O)[nH]nc(CN)c3c2)c1-c1c(F)c(Cl)cc(OC2CC2)c1C#N | Lu-99/Luc | cell viability, inhibitor, luciferase | 120 h | 0.065
CCC(=CCc1c(O)cc2c(c1O)C(=O)CC(c1ccc(O)cc1)O2)CC (stereo not drawn) | normal pig cell line | cytotoxicity, MTT | 48 h | > 120
O=C(Nc1cc(C(=O)Nc2ccc3[nH]ncc3c2)ccc1F)Nc1cc(C(F)(F)F)ccc1F | KM12 | cell growth or viability, ATP luminescence | 72 h | 38.9
COC(OC)c1ccc(-c2ccc(O)cc2)c(C(=C2C=CC(=O)C=C2)c2ccc(O)cc2)c1C#Cc1ccc(O)cc1 | MGC-803 | cell growth or viability, MTT | 48 h | > 50
O=C(CN1CCN(C(=O)c2ccc(C(F)(F)F)cc2)CC1)Nc1cccc(C(=O)Nc2ccc3[nH]ncc3c2)c1 | KM12 | cell growth or viability, ATP luminescence | 72 h | 28.5
CCC(=CCc1c(O)cc2c(c1O)C(=O)CC(c1cccc(O)c1OC)O2)CC (stereo not drawn) | normal pig cell line | cytotoxicity, MTT | 48 h | 53.6 ± 8.6
CCNC(NN=Cc1ccc([N+](=O)[O-])o1)=[S+][Au-][Cl] | CAKI-1 | cell growth or viability, resazurin |  | 21.4
C[C@H]1CN(C2COC2)CCN1c1ccc(Nc2cc(-c3ccnc(N4CCn5c(cc6c5CC(C)(C)C6)C4=O)c3CO)cn(C)c2=O)nc1 | TMD8, parental | cell viability, CellTiter-Glo | 4 days | 0.014
CC1(C)[C@H](NC(=O)c2cnn(CCO)c2)C(C)(C)[C@H]1Oc1ccc(C#N)c(Cl)c1 | MDA-MB-415 | cell growth or viability, CCK-8 | 7 days | > 10
Cc1cnc2nc1Nc1cc(ccc1F)COC/C=C/COCc1cc(ccc1OCCN1CCCC1)N2 | SET-2 | cell growth or viability, CCK-8 |  | 3.72
NC(NN=Cc1ccc([N+](=O)[O-])o1)=[S+][Au-][Cl] | CAKI-1 | cell growth or viability, resazurin |  | 25.6
CNS(=O)(=O)Nc1nccc(Cc2c(C)c3ccc(Oc4ncccc4F)cc3oc2=O)c1F | HCT-8 | cell viability | 7 days | 0.051

SMILES | cell line | test | setting | IC50 [µM]
Cc1cnc2nc1Nc1cccc(c1)COC/C=C/COCc1cc(ccc1OCCN1CCOCC1)N2 | SET-2 | cell growth or viability, CCK-8 |  | 9.65
COc1cc(C(=O)N/N=C/c2cccc3ccccc23)cc(OC)c1OC | TALL-1 | cell growth or viability, MTT | 48 h | 0.0892
COc1ccc2c(c1)CN1C(=S)N([C@H](C)c3ccccc3)C(=O)C1=N2 | healthy human PBMCs | cell viability, resazurin |  | 1.9 ± 0.4
O=C(Nc1ccc(C(=O)Nc2ccc3[nH]ncc3c2)c(Br)c1)Nc1cc(C(F)(F)F)ccc1F | KM12 | cell growth or viability, ATP luminescence | 72 h | > 50
CCOc1cncc(-c2ccc(NC(=O)C3(c4ccnc(NS(=O)(=O)C5CC5)n4)CCOCC3)nc2)n1 | SCLC-21H | cell growth or viability, ATP luminescence | 72 h | 10
O=C(Nc1ccc(F)c(C(=O)Nc2ccc3[nH]ncc3c2)c1)Nc1cc(C(F)(F)F)ccc1F | KM12 | cell growth or viability, ATP luminescence | 72 h | 41.8
C[C@H](c1ccccc1)N1C(=O)C2=Nc3cccc(Cl)c3CN2C1=S | healthy human PBMCs | cell viability, resazurin |  | 2.8 ± 0.6
CCCC(CCC)C(=O)[O][Pt]([NH2])([NH2])([Cl])([Cl])[O]C(C)=O | C13* cisplatin-resistant ovarian | cytotoxicity, MTT | 72 h | 1.75 ± 0.7
CCn1nc(Cl)c2c1-c1cnc(N)c(c1)O[C@H](C)c1cc(F)ccc1-c1nn(C)cc1C2 | ALK-fusion cell lines | cell viability |  | < 0.0015
CCC(=CCc1c(O)cc2c(c1O)C(=O)CC(c1cc(O)ccc1OC)O2)CC (stereo not drawn) | normal pig cell line | cytotoxicity, MTT | 48 h | 20.6 ± 2.6
CC(=O)N(C)Cc1cccc(-c2cc3c(c(C(F)(F)F)c2)CCCC3N(C)C(=O)CCOCCOCCC(=O)N(C)C2CCCc3c2cc(-c2cccc(CN(C)C(C)=O)c2)cc3C(F)(F)F)c1 (stereo not drawn) | CHO-K1 | protein synthesis |  | 11.7
C=CCc1c(O)cc2c(c1O)C(=O)CC(c1ccc(O)cc1)O2 (stereo not drawn) | normal pig cell line | cytotoxicity, MTT | 48 h | > 120
O=C(Nc1cc(C(F)(F)F)ccc1F)Nc1ccc(C(=O)Nc2ccc3[nH]ncc3c2)cc1C(F)(F)F | KM12 | cell growth or viability, ATP luminescence | 72 h | 24.7
C[C@@H](c1cccc2ccccc12)N1C(=O)C2=Nc3ccccc3CN2C1=S | healthy human PBMCs | cell viability, resazurin |  | 2.7 ± 1.3
Nc1nc2cnc(C(=O)N3CCOC[C@@H]3c3ccc(C(F)(F)F)cc3)cc2c2c1COC2 | HCT-116 MTAP-deleted | global SDMA level, measured: SDMA | 72 h | 0.0009
CC(C)c1ccc(N(C)c2ccc3c(c2)OCC[C@H]3CNc2cnccc2C(=O)O)cc1 | PLC-PRF-5 | cell growth or viability, ATP luminescence | 7 days | 0.028
